Assay results pooled from the literature.
Protocols differ between the studies behind these lines. ± gives the spread as reported.

CN1CCCNC(=O)c2cccc(c2)C(=O)NCCCN(C)CCCNc2cccc3c2C(=O)c2cccc(c2C3=O)NCCC1 — log2 fold change (SAS; RNA-Seq, item: TTC31 mRNA; 1 µM, 6 h; baseline: untreated cells): -1.17
C[n+]1cccc2cc(/C=N/NC(=O)c3cc(C(=O)N/N=C/c4ccc5c(ccc[n+]5C)c4)ncn3)ccc21 — ΔTm (hp2 hairpin duplex DNA; FRET melting; 1 µM, with: ds26 10 µM): 0.4 ± 0.3 °C
CC(C)c1ccc(N(C)c2ccc3c(c2)OCC[C@H]3CNc2cnccc2C(=O)O)cc1 — IC50 (HEP3B217; cell viability, CellTiter-Glo; liver; 7 days): 0.129 µM
COc1ccccc1-c1ccncc1C(=O)Nc1nnc(OCc2ccc(Cl)cc2)s1 — colony survival (PEO1 BRCA2-mutant; 0.5 µM, with: olaparib 1 µM): 0%
COC(=O)c1cc(NC2=NC(=O)C(=Cc3ccc(N(C)C)cc3)S2)ccc1OC(C)=O — fold change (MCF7; item: MMS22L mRNA; 0.81 µM (IC50), 24 h; baseline: DMSO): 0.214
O=C(N/N=C/c1ccc2c(ccc[n+]2Cc2ccccc2)c1)c1cncc(C(=O)N/N=C/c2ccc3c(ccc[n+]3Cc3ccccc3)c2)n1 — ΔTm (MYC parallel G4 DNA; FRET melting; 1 µM, DNA 0.2 µM): 11.2 ± 0.2 °C
[Cl-].[Cl-].[Ru+2].c1ccc(-c2ccccn2)nc1.c1ccc(-c2ccccn2)nc1.c1ccc2cc3nc4c5cccnc5c5ncccc5c4nc3cc2c1 — phototherapeutic index (SK-MEL-28; cell viability, resazurin; dark, 1% O2 hypoxia; baseline: dark EC50 over green EC50): 1
Cc1nc2c(F)cc(-c3nc(Nc4ccc(CNC(=O)CCCC(=O)NO)cc4)ncc3F)cc2n1C(C)C — inhibition (4T1; cell growth or viability, CCK-8; 0.3 µM, 48 h): 58.4%
CCN(CC)CC(=O)Nc1cccc(-n2cc(-c3ccc4ccc(-c5cn(-c6cccc(NC(=O)CN(CC)CC)c6)nn5)cc4c3)nn2)c1 — fold regulation (RCC4; PCR angiogenesis array, item: THBS1; 5 x IC50, 4 h, normoxia; baseline: untreated): -1.23 fold
CNS(=O)(=O)Nc1nccc(Cc2c(C)c3ccc(Oc4ncccc4F)cc3oc2=O)c1F — IC50 (M059K; cell viability, CellTiter-Glo; 7 days): > 1 µM
Cc1ncsc1-c1ccc(C(C)NC(=O)C2CC(O)CN2C(=O)C(NC(=O)CCCCCCCCCCN2CCCC(Nc3ncc(Cl)c(Nc4ccccc4S(=O)(=O)C(C)C)n3)C2)C(C)(C)C)cc1 (centres unmarked) — log2 fold change (22Rv1; RNA-seq, item: POLR1A mRNA; concentration not given; baseline: DMSO): -1.19
[Cl-].[Cl-].[Ru+2].c1cc(-c2ccc3cccnc3n2)nc(-c2ccc3cccnc3n2)c1.c1ccc2cc3nc4c5cccnc5c5ncccc5c4nc3cc2c1 — EC50 (A-375; resazurin; with: light 733 nm, 9 mW, 100 J/cm2): 26.4 µM
CCN(C(=O)c1cc(F)ccc1Oc1nncnc1N1CCC2(C1)CN([C@H](CCCN(C)CCOC)C(C)C)C2)C(C)C — GI50 (NCI-H292; cell growth or viability; 7 days): > 10 µM
CC(C)(C)c1cc(-c2ccc3cc4ccccc4nc3n2)nc(-c2ccc3cc4ccccc4nc3n2)c1.Cc1ccncc1.[Cl-].[Cl-].[Ru+2].c1ccc2cc3nc4c5cccnc5c5ncccc5c4nc3cc2c1 — phototherapeutic index (A-375; visible light 100 J/cm2; baseline: dark EC50 over light EC50): 8
Cn1ncc2cc(-c3cncc(Cl)c3N3CCC4(CCNC4=O)CC3)ccc21 — log2 fold change (LS174T; gene expression, microarray, item: FAM65C mRNA; concentration not given, 24 h; baseline: untreated cells): 1.4
CO[C@@H]1[C@@H](OC(N)=O)[C@@H](O)[C@H](Oc2ccc3c(O)c(NC(=O)c4ccc(O)c(CC=C(C)C)c4)c(=O)oc3c2C)OC1(C)C — colony count (DLD-1 parental; 150 µM, replicate 2): 0.1
CC(C)(C)c1cc(-c2ccc3cccnc3n2)nc(-c2ccc3cccnc3n2)c1.[Cl-].[Cl-].[Ru+2].c1cnc2c(c1)ccc1cccnc12 — EC50 (A-375; photocytotoxicity, resazurin; visible light 400-700 nm, 20 mW, 100 J/cm2): 116 ± 4 µM

Excerpt of the above:
COC(=O)c1cc(NC2=NC(=O)C(=Cc3ccc(N(C)C)cc3)S2)ccc1OC(C)=O — fold change (MCF7; item: MMS22L mRNA; 0.81 µM (IC50), 24 h; baseline: DMSO): 0.214
CCN(CC)CC(=O)Nc1cccc(-n2cc(-c3ccc4ccc(-c5cn(-c6cccc(NC(=O)CN(CC)CC)c6)nn5)cc4c3)nn2)c1 — fold regulation (RCC4; PCR angiogenesis array, item: THBS1; 5 x IC50, 4 h, normoxia; baseline: untreated): -1.23 fold
